Values quoted from earlier work that unrelated publications cite.
Protocols differ between the studies behind these lines. ± gives the spread as reported.
BCHE: Cholinesterase (BCHE, Equus caballus, UniProt P81908)
Sequence of UniProt P81908 (whole entry, looked up): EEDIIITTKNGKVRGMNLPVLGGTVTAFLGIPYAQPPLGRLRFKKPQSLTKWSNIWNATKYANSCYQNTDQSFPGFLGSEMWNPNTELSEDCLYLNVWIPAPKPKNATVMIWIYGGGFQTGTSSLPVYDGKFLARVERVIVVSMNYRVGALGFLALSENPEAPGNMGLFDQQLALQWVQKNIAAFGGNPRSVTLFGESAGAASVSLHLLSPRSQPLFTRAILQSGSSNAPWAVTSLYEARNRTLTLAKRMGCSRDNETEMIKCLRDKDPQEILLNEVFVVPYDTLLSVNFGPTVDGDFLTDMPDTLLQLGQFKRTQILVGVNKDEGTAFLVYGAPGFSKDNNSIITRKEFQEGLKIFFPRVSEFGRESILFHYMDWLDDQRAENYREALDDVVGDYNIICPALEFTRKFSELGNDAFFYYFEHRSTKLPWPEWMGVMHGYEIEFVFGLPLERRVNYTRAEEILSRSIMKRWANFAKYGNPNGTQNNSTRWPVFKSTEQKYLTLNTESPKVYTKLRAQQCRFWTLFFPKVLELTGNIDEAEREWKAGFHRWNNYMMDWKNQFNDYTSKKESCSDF
ACHE: Acetylcholinesterase (ACHE, Homo sapiens, UniProt P22303)
Sequence of UniProt P22303 (whole entry, looked up): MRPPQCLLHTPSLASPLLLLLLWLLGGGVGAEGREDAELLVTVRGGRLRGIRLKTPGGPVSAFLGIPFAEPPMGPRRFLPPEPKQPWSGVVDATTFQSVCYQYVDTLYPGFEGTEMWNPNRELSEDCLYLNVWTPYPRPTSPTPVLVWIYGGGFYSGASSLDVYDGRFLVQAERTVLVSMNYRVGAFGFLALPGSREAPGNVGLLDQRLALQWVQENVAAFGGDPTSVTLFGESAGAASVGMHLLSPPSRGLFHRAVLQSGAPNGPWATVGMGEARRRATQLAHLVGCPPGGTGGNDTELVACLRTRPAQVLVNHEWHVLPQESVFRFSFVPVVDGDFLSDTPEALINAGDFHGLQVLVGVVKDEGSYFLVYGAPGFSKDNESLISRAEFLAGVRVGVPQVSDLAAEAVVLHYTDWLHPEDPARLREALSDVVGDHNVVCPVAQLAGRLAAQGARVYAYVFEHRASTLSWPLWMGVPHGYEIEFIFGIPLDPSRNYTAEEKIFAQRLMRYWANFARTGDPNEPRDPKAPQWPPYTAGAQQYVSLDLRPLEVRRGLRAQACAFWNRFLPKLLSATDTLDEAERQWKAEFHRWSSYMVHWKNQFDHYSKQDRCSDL
HDAC1: Histone deacetylase 1 (HDAC1, Homo sapiens, UniProt Q13547)
Sequence of UniProt Q13547 (whole entry, looked up): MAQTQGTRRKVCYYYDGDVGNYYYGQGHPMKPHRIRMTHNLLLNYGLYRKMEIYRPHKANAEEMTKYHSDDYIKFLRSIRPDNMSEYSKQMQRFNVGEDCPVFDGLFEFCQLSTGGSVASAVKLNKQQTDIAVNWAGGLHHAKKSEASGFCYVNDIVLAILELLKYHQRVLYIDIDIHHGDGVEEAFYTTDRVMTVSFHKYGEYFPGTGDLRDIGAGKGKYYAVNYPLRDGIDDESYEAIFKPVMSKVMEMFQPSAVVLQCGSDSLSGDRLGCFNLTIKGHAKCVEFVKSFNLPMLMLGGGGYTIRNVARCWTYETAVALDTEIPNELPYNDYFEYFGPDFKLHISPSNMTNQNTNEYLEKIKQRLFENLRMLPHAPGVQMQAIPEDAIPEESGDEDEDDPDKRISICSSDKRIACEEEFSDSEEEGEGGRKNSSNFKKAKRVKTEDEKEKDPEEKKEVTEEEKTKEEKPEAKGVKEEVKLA
Sequence of UniProt P21397 (whole entry, looked up): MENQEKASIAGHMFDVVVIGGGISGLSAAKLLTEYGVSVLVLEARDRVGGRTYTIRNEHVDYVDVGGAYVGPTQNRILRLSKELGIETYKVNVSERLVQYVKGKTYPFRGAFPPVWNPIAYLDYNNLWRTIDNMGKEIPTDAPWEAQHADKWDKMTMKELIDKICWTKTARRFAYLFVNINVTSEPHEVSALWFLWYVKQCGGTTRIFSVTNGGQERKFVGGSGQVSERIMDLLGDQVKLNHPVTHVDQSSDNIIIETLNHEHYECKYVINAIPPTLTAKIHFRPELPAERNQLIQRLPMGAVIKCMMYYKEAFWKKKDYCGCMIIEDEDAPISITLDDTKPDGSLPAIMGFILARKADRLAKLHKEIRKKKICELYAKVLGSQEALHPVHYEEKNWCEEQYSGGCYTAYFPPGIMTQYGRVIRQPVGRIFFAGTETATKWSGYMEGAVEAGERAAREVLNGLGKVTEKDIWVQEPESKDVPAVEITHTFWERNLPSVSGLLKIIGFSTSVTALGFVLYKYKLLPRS
Sequence of UniProt Q13393 (whole entry, looked up): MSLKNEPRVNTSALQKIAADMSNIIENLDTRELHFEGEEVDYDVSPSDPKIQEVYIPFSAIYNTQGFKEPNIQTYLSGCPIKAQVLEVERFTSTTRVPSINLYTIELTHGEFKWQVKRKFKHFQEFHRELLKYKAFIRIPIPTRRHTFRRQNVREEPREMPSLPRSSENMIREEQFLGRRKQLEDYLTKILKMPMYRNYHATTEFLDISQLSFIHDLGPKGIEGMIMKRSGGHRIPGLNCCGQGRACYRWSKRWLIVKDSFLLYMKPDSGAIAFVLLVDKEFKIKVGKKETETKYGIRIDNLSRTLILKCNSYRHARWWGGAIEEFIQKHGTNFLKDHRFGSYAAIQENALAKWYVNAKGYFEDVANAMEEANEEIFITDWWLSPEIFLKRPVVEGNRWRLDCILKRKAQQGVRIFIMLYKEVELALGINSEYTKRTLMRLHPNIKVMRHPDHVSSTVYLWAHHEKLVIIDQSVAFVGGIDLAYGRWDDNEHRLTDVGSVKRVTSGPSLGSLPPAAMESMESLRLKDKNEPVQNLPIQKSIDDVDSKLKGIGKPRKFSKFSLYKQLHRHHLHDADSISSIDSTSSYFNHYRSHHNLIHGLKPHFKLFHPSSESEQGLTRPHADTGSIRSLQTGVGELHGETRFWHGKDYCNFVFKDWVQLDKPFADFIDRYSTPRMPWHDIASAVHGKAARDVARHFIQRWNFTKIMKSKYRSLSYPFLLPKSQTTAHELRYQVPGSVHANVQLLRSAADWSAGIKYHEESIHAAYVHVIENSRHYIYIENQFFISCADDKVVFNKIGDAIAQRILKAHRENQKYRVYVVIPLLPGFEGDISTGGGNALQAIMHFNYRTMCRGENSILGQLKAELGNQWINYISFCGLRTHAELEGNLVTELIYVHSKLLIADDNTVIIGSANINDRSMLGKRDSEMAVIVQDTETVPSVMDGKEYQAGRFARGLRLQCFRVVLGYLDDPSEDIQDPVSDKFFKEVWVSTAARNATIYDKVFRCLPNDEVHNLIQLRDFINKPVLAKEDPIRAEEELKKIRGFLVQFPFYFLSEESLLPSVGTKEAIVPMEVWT
Sequence of UniProt P35557 (whole entry, looked up): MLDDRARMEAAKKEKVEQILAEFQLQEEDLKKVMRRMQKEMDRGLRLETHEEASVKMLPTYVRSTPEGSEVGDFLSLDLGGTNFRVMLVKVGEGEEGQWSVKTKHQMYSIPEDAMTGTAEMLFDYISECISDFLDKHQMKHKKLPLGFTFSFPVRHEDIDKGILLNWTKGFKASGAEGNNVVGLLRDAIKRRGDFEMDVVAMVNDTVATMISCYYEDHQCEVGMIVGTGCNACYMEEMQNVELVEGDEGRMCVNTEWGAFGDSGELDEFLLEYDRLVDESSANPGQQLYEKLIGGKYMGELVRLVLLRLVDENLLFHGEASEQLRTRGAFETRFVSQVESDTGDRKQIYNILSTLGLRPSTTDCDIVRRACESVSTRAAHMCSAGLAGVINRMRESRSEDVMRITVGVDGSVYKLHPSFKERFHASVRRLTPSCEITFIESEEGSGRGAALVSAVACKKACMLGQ

O=c1cc(Cc2ccc(-c3ccccc3)cc2)c2cccnc2n1O
IC50 (HIV-1 RNase H; inhibitor): 0.64 µM

C#CCNc1ccc(/C=C2\SC(=O)N(CN(C)CCC(Oc3ccc(C(F)(F)F)cc3)c3ccccc3)C2=O)cc1 (stereo not drawn)
IC50 (MAOB (Homo sapiens, UniProt P27338); inhibitor): 0.015 µM

O=C(/C=C/c1ccc(O)cc1)c1c(O)cc(O)cc1O[C@@H]1O[C@H](O)[C@@H](O)C(O)[C@H]1O (stereo partly drawn)
IC50 (acetylcholinesterase): 52 µg/mL

CN1CCC2(CC1)c1ccccc1N(Cc1ccc(C(=O)NO)cc1)C2c1ccc(Cl)cc1 (stereo not drawn)
IC50 (HDAC8 (Homo sapiens, UniProt Q9BY41); inhibitor; together with: Fluor-de-Lys substrate 50 µM): 3.45 ± 2.14 µM

NC1CC1c1ccc(NC(=O)c2cccc(NC(=O)OCc3ccccc3)c2)cc1 (stereo not drawn)
IC50 (Lysine-specific histone demethylase 1A, with CoREST (KDM1A, Homo sapiens, UniProt O60341)): 0.043 ± 0.01 µM

Fc1ccc(-c2nnc(N3CCN(c4ccccn4)CC3)o2)c(F)c1
IC50 (BCHE): 0.787 ± 0.022 µM

CN(C)c1ccc(/C=C/C(=O)c2ccc(OC(=O)N3CCCC3)cc2O)cc1
IC50 (monoamine oxidase B; enzyme activity, inhibitor): 0.29 µM

Cc1nn(CCCCCCCN2C(=O)c3ccccc3C2=O)c(=O)n1CC(F)(F)F
IC50 (ACHE; enzyme activity, inhibitor): 8.07 µM

CC(CCC(=O)O)C1CCC2C3CCC4CC(OC(=O)C(N)CC(=O)O)CCC4(C)C3CCC12C (stereo not drawn)
IC50 (Sialyltransferase ST3Gal-I (Rattus norvegicus, UniProt Q6H8N0); enzyme activity, inhibitor): 39 ± 1 µM

O=C(OCC[18F])C1C2CCC(CC1c1ccc(/C=C\I)cc1)N2 (stereo not drawn)
time to peak uptake (SERT; microPET; anaesthetised, thalamus): 85 min

CC(C)C[C@@H](CN[C@@H](CC(C)C)C(N)=O)NC(=O)[C@H](Cc1cnc[nH]1)NC(=O)CNC(=O)[C@@H](NC(=O)[C@H](C)NC(=O)[C@H](Cc1c[nH]c2ccccc12)NC(=O)[C@H](CCC(N)=O)NC(=O)[C@H](CC(N)=O)NC(=O)CNC(=O)[C@H](CC(C)C)NC(=O)[C@H](CCCN=C(N)N)NC(=O)[C@H](CCC(N)=O)NC(=O)[C@@H]1CCC(=O)N1)C(C)C
IC50 (Gastrin-releasing peptide receptor (Rattus norvegicus, UniProt P52500); binding; literature species comparison): 0.434 ± 0.065 µM

CNC12CC3CC(CC(C1)c1ccccc13)O2
IC50 (NMDA receptor; inhibitor): 6 µM

CC(C)(C)c1ccc(C(=O)Nc2cc(Cl)c(Br)cc2C(=O)O)cc1
IC50 (Hexokinase-4 (GCK, Homo sapiens, UniProt P35557); enzyme activity, inhibitor): 48.3 µM

CN1CCC2(CC1)c1ccccc1N(Cc1ccc(C(=O)NO)cc1)C2c1cccc(Cl)c1 (stereo not drawn)
IC50 (Histone deacetylase 8 (Schistosoma mansoni, UniProt A5H660); inhibitor; together with: Fluor-de-Lys substrate 50 µM): 4.36 ± 2.34 µM

CN[C@H](CC(C)C)C(=O)N[C@H]1C(=O)N[C@@H](CC(N)=O)C(=O)N[C@H]2C(=O)N[C@H]3C(=O)N[C@H](C(=O)N[C@H](C(=O)O)c4cc(O)cc(O)c4-c4cc3ccc4O)[C@H](O)c3ccc(c(Cl)c3)Oc3cc2cc(c3O[C@@H]2O[C@H](CO)[C@@H](O)[C@H](O)[C@H]2O[C@H]2C[C@](C)(NCc3ccc(-c4ccc(Cl)cc4)cc3)[C@H](O)[C@H](C)O2)Oc2ccc(cc2Cl)[C@H]1O
Tmax (mouse, plasma; intravenous, 10 mg/kg): 4.98 min

COc1cc(/C=C/c2nnc(-c3ccc(C(F)(F)F)cc3)o2)ccc1O
IC50 (Beta-secretase 1 (BACE1, Homo sapiens, UniProt P56817)): 0.146 ± 0.012 µM

COc1nc(-c2ccnc(NC(=O)C3CC3)c2)sc1C(=O)NCCCNc1c2c(nc3ccccc13)CCCC2
IC50 (ACHE; inhibitor): 0.0065 µM

CP(=O)(O)CN
IC50 (Urease subunit alpha (Sporosarcina pasteurii, UniProt P41020); enzyme activity, inhibitor): 1100 ± 10.5 µM

O=C(CS)NCCCCCCn1ccc2cc(F)c(Cl)cc21
IC50 (HDAC1; inhibitor): 29.3 µM

CS(=O)(=O)Nc1ccc(-c2cncc(-c3cccc4[nH]ccc34)c2)cc1
IC50 (PIKFYVE (Homo sapiens, UniProt Q9Y2I7)): 10 µM

CC/C(=C(\c1ccccc1)c1ccc(OCCN(C)C)cc1)c1ccccc1
IC50 (Phospholipase D1 (Homo sapiens, UniProt Q13393)): no effect

C=CC(=O)N1CCC[C@@H](n2nc(-c3cn(C)c4ccccc34)c3c(N)ncnc32)C1
IC50 (EGFR (Homo sapiens, UniProt P00533, L858R)): 0.0038 ± 0.0028 µM

O=C(CS)NCCCCCCn1ccc2cc(Cl)c(Cl)cc21
IC50 (HDAC1; inhibitor): > 30 µM

CC1(C)CC(=O)C2=C(C1)N=c1sc(=Cc3ccc(OCCNCCc4c[nH]c5ccccc45)cc3)c(=O)n1C2c1c[nH]c2ccccc12 (stereo not drawn)
IC50 (MAOA (Homo sapiens, UniProt P21397); inhibitor): 1.93 µM

O=C(CS)NCCCCCn1ccc2cc(Cl)c(Cl)cc21
IC50 (HDAC1; inhibitor): 7.49 µM

CN(CCCCCNc1c2c(nc3ccccc13)CCCC2)C1CCC(c2ccc(Cl)c(Cl)c2)c2ccccc21 (stereo not drawn)
IC50 (BCHE; inhibitor): 0.174 µM

O=C(O)[C@@H]1CS[C@H]2CS[C@H](CS)N21
IC50 (blaNDM-1 (Klebsiella pneumoniae, UniProt C7C422); imipenem hydrolysis, inhibitor; in cells): 23 µM

Repeated from above:
CNC12CC3CC(CC(C1)c1ccccc13)O2
IC50 (NMDA receptor; inhibitor): 6 µM

CC/C(=C(\c1ccccc1)c1ccc(OCCN(C)C)cc1)c1ccccc1
IC50 (Phospholipase D1 (Homo sapiens, UniProt Q13393)): no effect

CN1CCC2(CC1)c1ccccc1N(Cc1ccc(C(=O)NO)cc1)C2c1ccc(Cl)cc1 (stereo not drawn)
IC50 (HDAC8 (Homo sapiens, UniProt Q9BY41); inhibitor; together with: Fluor-de-Lys substrate 50 µM): 3.45 ± 2.14 µM
